Results pooled from the literature.
Every numbered part comes from another study and shows a few of its results, in no order.

Set 1 — method: RNA Bind-n-Seq; molecule type: RNA; medium: in vitro; tested at: not given; setting: RNA with constant flanks, ends assumed; baseline: input RNA pool; reading: higher = stronger binding
Target: RING finger protein unkempt homolog, zinc fingers 1-6, GST-SBP tag (UNK, Homo sapiens, UniProt Q9C0B0, residues 30-357)
UniProt Q9C0B0, sequence (30-357, looked up): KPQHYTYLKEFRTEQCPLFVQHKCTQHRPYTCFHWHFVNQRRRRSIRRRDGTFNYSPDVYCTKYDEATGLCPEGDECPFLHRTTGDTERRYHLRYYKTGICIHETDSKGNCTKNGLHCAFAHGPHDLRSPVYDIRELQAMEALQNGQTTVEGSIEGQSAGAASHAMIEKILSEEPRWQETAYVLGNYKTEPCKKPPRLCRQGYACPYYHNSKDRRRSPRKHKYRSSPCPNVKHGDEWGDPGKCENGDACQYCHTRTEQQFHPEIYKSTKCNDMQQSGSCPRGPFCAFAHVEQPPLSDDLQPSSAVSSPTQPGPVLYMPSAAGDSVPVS
Constant ends, left off below: GGGAGUUCUACAGUCCGACGAUC … CAACAGAGGAUUGAGCAUCA
The bound/input enrichment of `GAGAAGAAAUAUUGCAGUGAAUGAAGAUUCCUCUGCAUUUUAGCACUGCUUUUUCAACUGCCGUUGGCUUUUGAAUGAGGAUGACAAUGGAAGAGAUGAAGAAUGAAGCUGAGACCACAU` is reported as 0.423 ratio.
`ACUCUGUGGGCCACAUCCCCCAGGGUUCUGACACUUCUGCAGUGUGACCAGUGGUGAUGCCCGGUUAUAAUUUCAAACUGUGAAAAAUAAUGGUCUCGUCCUUUACUCAGUGUGGGGUUA` has a bound/input enrichment of 0.122 ratio.
With `GUUCGGGGUAUUUUGUUGGGUGCUUUAGGAGGAGAGAAGAGGAGGACCUUGUCCUCAUCCCCGCCGUUUGGCUGGACUUGUACUGGCCGUUGGAAACCCCCAAGUACAUUUCCGUGUGGA` the bound/input enrichment was 0.362 ratio.
`CUUAGUCCUGAUGCUGUCUAUGUACUGUGCUACUCUUUGAUUCUACUUUCCAUUGACCUCACCCGCCCUCAUGUGAAGAAUAAAAUGUCAAAAAGGGAAUUUAUUCGAAAUACCCGUCGC` gave a bound/input enrichment of 0.355 ratio.
The bound/input enrichment of `GCACCAAAGUAUCAGAUAGGAGAGAGAAUCCGAGUCAUCCUGGACAUGGAGGAUAAGACUUCCGCUUUUGAGCGUGGGUAUGAGUUCCUGGGGGUUGCCUUUCGAGGACUUCCAAAAGCC` is reported as 0.125 ratio.
`GGUUUUCCUAAAGUCAACAUUCUCCUCAGGGAUGCCAUUGAAAAGUUAUUUCCUGAUGCCAUCCGAAUGCGAGUUGAAGACAUUCAGCAGAAUAAUGAUGUAGUCCAAAGUCUUGCAGCC` gave a bound/input enrichment of 0.199 ratio.
`UUAGGAAAAGCUACAAAUAACACUUACUUUGAAUCCUGCUGUCAAAUGUCUGCAUCAAGACCGCACCCCUUUGUGGGAGGCCCUGAGUAUCUUCUCUUCCUCUACUGCCUAACUGUUGGU` has a bound/input enrichment of 0.381 ratio.
`UGACUUUGCGUAGGCUUGCGGGUGUCCAGGCCGCCUAGGCUGGAGAGAAAGCCAGCCGAAACCGAUAUGAUUGUAGGAAAAGACCGGGAAGGUUUCUUUACCAACGGUUUGACUCUUGGA` has a bound/input enrichment of 0.165 ratio.
For `GAUGGGGGCCUUGUUUUGUUUUGUUUUGGUUUUUGGAGACAGGGUCUCACUGUGUAGUCCCCGCUGGCCUGGAACUCACUAUGUAGAUCAGGCUGGACUGAACUCACAAAGAUCCACCUG`, the bound/input enrichment was 0.249 ratio.
`CCAGAGCUCAAAUACCCAAAAGGAGCUGGAAGAGUCGCGUUUUCUAAUCAACAGAGUUACACCGCUGCUAUCAGUGCCCGCUUUGUUCAGCUGCAGCAUGGAGAGAUAGAUAAACGGGUG` gave a bound/input enrichment of 0.181 ratio.
With `GUGUUGAACUUCACAGCCUUGCUCAUUGAGUACAGCUUUUCCCGGCAUCUGUACAGUUCCACCGAGCAUUUGACAACUUUAUUGGCUUCCUCUGAUAUGCAAGUGGUGCUGGCAGUCCUC` the bound/input enrichment was 0.202 ratio.

Set 2 — method: competition protein-binding microarray; molecule type: double-stranded DNA, one strand shown; medium: in vitro; tested at: 2 µM; added: Cbf1 competitor, 0.05 µM; reading: higher = stronger binding; constant ends, left off below: … GTCTTGATTCGCTTGACGCTGCTG
Target: Phosphate system positive regulatory protein PHO4, full length, GST-tagged (PHO4, Saccharomyces cerevisiae, UniProt P07270, residues 1-312)
Setting: whole 60-bp probe, lowest competitor level
Residues (chain): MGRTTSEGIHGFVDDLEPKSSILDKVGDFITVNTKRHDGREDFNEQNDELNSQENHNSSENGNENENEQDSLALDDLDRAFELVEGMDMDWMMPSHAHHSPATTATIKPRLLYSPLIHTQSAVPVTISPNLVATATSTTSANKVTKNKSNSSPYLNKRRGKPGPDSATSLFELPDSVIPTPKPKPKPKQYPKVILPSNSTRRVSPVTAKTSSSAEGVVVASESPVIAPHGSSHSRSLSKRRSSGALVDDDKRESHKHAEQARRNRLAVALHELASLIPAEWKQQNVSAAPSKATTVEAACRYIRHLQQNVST
With `CTTATATCCTGGCTCAACGTGAAGAGATTCTAGATC` the fluorescence intensity was 8410 a.u.
With `GTAGGAGCCCCTTAGGGCGTGCCAGTAGTTTAAAGC` the fluorescence intensity was 7870 a.u.
`GGGACTAGGGGATTGCATGTGCGGGGCAGGGGCACT` has a fluorescence intensity of 8400 a.u.
`ATCACTACCAAGAATAACGTGACGGTGCATAGGAGC` gave a fluorescence intensity of 7750 a.u.
`AAATTACTAAGTTGTCACACTACTTACCCCGTATGA` gave a fluorescence intensity of 3630 a.u.
`TGCGCAACAACTTGTCAGGTGGGTGTATGTCTAGAA` has a fluorescence intensity of 6280 a.u.
`TGCTGCATTTCTCACCACGTCCTGGTGGGAGTTTCC` has a fluorescence intensity of 4910 a.u.
For `CGTCCTAGCGATTGAAAAGTGGGTGCCATGAGGAAG`, the fluorescence intensity was 6470 a.u.
With `CGGGGTTAAGTTTGGGTAGTGGGTGGCTTGCAGCAG` the fluorescence intensity was 4780 a.u.
`CATACCCAACCTTGAGTAGTGGGTGAAGATATTTGT` has a fluorescence intensity of 4630 a.u.
For `CTTCTGTAAATTTGTCACGAGACTTGACGCGCCCCG`, the fluorescence intensity was 6650 a.u.
`CGGGGTTAAGTTTTTCACGTGAAATGCTTGCAGCAG` gave a fluorescence intensity of 8010 a.u.
`TGCTTCTTTGAAAAGCACATGCCGTTTCACCACAGG` has a fluorescence intensity of 10500 a.u.
With `AGTGTCCAACTTATTAAGGTGCGGGCGCCTGGCTTG` the fluorescence intensity was 3850 a.u.
With `CCATTAGTAGGTTGTCATGAAGGTGCTGGTGTAGTT` the fluorescence intensity was 5780 a.u.
`CTCAGTGGTTAGAGCTTCGTGCTTTTAGCAACATTC` has a fluorescence intensity of 7360 a.u.

Set 3 — method: protein binding microarray; molecule type: double-stranded DNA, one strand shown; medium: in vitro; tested at: not given; baseline: not given; reading: higher = stronger binding
Target: Histone acetyltransferase KAT6A, both winged helices, GST fusion (KAT6A, Homo sapiens, UniProt Q92794, residues 1-181)
Setting: 8-mer, flanks averaged, mean of 2 arrays, mostly near background
Target sequence (chain): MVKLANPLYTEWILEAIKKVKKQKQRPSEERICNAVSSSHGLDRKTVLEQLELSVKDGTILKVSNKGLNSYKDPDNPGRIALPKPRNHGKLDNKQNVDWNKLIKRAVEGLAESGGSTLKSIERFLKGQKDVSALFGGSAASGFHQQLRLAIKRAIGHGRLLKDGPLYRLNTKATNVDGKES
For `GAGCAACC`, the E-score was -0.232.
With `GGCGTACA` the E-score was 0.133.
`ACCCCCTG` has an E-score of -0.0842.
The E-score of `CGTTTGTA` is reported as 0.0219.
With `GAATCCTA` the E-score was -0.135.
For `GAATATTA`, the E-score was 0.0268.
The E-score of `CAAGAGTG` is reported as -0.166.
The E-score of `CCAGATCG` is reported as 0.039.
`AGATCCCG` has an E-score of 0.194.
The E-score of `AGACGCTA` is reported as 0.164.
The E-score of `CAATAACA` is reported as -0.0971.
`GTCCCTGA` gave an E-score of -0.239.
The E-score of `CCAGTGCC` is reported as -0.0918.
`GGATGGCC` gave an E-score of -0.0393.
For `GATCATCC`, the E-score was -0.0738.
`CTGGTGCA` has an E-score of -0.172.
With `GCCCTGAC` the E-score was -0.0831.
The E-score of `AAAACCGA` is reported as 0.135.
For `TAAATCGA`, the E-score was -0.0707.
`CCCTCGTC` has an E-score of -0.199.

Set 4 — method: universal PBM; molecule type: double-stranded DNA, one strand shown; medium: in vitro; tested at: 600 nM; reading: higher = stronger binding
Target: Sal-like protein 4, full length isoform A (SALL4, Homo sapiens, UniProt Q9UJQ4, residues 1-1053)
UniProt Q9UJQ4, sequence (whole entry, looked up): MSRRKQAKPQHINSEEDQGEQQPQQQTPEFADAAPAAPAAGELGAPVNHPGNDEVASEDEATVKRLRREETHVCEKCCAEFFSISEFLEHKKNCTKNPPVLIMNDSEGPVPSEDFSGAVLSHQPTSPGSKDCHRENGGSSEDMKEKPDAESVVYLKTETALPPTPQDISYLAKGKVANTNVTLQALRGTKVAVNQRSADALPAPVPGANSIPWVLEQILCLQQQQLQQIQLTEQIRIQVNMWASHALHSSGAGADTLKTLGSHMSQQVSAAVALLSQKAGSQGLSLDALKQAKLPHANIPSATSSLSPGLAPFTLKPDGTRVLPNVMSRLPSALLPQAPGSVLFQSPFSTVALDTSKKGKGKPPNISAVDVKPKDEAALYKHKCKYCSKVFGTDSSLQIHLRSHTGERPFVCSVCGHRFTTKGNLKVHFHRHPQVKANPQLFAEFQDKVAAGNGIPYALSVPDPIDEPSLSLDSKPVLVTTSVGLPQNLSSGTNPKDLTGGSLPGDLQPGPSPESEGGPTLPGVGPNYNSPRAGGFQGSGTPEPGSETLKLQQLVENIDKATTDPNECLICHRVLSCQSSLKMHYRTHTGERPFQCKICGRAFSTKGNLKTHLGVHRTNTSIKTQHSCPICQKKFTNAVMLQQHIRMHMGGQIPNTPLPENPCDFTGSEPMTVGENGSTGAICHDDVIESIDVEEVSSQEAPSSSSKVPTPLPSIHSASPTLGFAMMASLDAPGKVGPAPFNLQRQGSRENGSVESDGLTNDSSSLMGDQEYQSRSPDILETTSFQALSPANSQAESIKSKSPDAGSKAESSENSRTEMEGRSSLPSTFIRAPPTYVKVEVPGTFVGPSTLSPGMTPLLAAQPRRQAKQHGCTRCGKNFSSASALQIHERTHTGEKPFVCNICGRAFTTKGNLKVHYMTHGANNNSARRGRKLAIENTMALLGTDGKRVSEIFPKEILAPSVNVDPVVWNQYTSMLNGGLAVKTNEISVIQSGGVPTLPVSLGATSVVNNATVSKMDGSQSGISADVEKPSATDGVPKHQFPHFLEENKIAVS
Setting: 8-mer, flanks averaged, mean of replicates
With `ATTTATCG` the E-score was 0.248.
`AGGTTGAG` gave an E-score of -0.0885.
With `GGCTTGAA` the E-score was 0.00249.
With `AGTACGCA` the E-score was -0.0687.
The E-score of `CCTGAGAA` is reported as 0.0626.
`AAGAAATT` gave an E-score of 0.318.
`AGGACCTA` gave an E-score of 0.00104.
With `CAATCGTC` the E-score was -0.0444.
`CCTTCTAG` gave an E-score of -0.102.
`AGCATTAG` gave an E-score of 0.052.
`AAAAACTT` has an E-score of 0.326.
`GACAGCCA` gave an E-score of -0.145.
`GTGCACTA` has an E-score of 0.0562.
`GGTGTGGA` gave an E-score of -0.019.
With `TCTCGAAA` the E-score was 0.0148.
For `ACATAATC`, the E-score was 0.255.
`CTACTAAC` has an E-score of 0.0669.

Set 5 — method: RNA Bind-n-Seq; molecule type: RNA; medium: in vitro; tested at: 365 nM; baseline: no-protein control; reading: higher = stronger binding
Target: RNA binding protein fox-1 homolog 2, RRM domain, GST-SBP tag (RBFOX2, Homo sapiens, UniProt O43251-10, residues 100-194)
Setting: natural RNA segment, single round, ends assumed
Constant ends, left off below: GGGAGUUCUACAGUCCGACGAUC … UGGAAUUCUCGGGUGCCAA
Construct (chain): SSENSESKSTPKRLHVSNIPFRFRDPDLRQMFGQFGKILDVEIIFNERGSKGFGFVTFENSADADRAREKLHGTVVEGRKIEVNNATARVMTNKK
Under “RBNS enrichment (R)”, `GAAAGGAGGGGAGAAAGCGGGCUCUCACCCCCUCAGGAGUGGGCACGGGAGCCCUUCUCCCUGACCCUGGGCUGCUUCCUGGGGGCUCUCCAGACCCCUCUCUAGGACCA` is recorded as 0.474.
For `GGCUGUAUGACAUUUUGAGCUCUUAACUGUGAAUGGCAUUCAUUAAGCUCCUUUAUCCUAUAGAUUCUAUCUUUAUGUUCAUCUGAAAUGAACUAUUCAUCAGUACUUUC`, “RBNS enrichment (R)” read 0.735.
`CCGUAACUGGAAUCUUCAUAGGUCAUAUUGAAAUCUUCAAGGUGACCAUGCCCCACCGGGGUGCUGGGGCAGUAGUCAUGGCAGACUCCCGGCCUGGGCCCCCAGGAUUC`: “RBNS enrichment (R)” 0.31.
For `UGGGUCAUCGGGGCUCACUGCCUCCUGCCCUUCUCUCCUGUCUGACCCCCACUUAGCCCUUCUCUCCUUGCAGCCUAGCAGUUUAUAGUUCUGAGAUGGAAAGUUGAAGG`, “RBNS enrichment (R)” read 0.323.
`UUUGAGAAGUGAAUUAACCUUACAUCCCUUUGUUCAGAUACCUUAAAAGUUACUUUAUUUAAAAGCAUUUAUUAAUCUUAGUCUGAAAUCAAAAUAUAGAUUAAUUGGCU` — result for “RBNS enrichment (R)”: 0.35.
Under “RBNS enrichment (R)”, `CUGGCCUCUGCCAUAAUUUGUUGUUCAACUGCUCCCUCCUUCCUGAGGGGCCUCAGGGCUUGUGGGGGGUAGGCUGAGACCCCACCACCAAAGGUUAAGUGAGGUCCCCU` is recorded as 0.338.
For `UCUAGCUACAGAGUCCAGGCCACUGGACCAGCCAACAUCUGGGCUGCUGCAGGGAGGCCUGGCCUAUUUUUUCUUAAAACAUAUUUUAUAAAACUACAACCUGAUCUACC`, “RBNS enrichment (R)” read 0.574.
`UUUUGUGUCCAGCUCAGUAUCUGCAACAAGAAGUUUCCCACUUGUGGAUGUUUAGUGCAGCCACAGACUUGUAUUUUGAUCCCCAAUUUUUUUUUGAAAGAGUUCUCCUC` — result for “RBNS enrichment (R)”: 0.61.
`GCAUCCCAAACAUUGCCAGGAGGCUUCCCUGGACCCCAGCGAGACCCUGGCCUCUCUUGUCUGCACGCCUCAUGUGGCCACUGGGAUUUGAGGGUCCACAGUGAACCUUG`: “RBNS enrichment (R)” 3.74.
`AACAGGACAAUCAAUUUAAGACAACAGAAAUAGAGAUUGUUAAAUAAAACCAUUAGUAUUUUACUUUGACUCAGUACCUUGGUUUGUCCCAACUGAAUAAGAGUUUGUAU`: “RBNS enrichment (R)” 0.526.
For `GCACCUGGACACUAGAGUGGAUGAAUGUCUGGAGUUCACCUGCAUUUGGACUGUGUGAUUGUGCCUCAGACACUAGACCUCUUCCAGAUGGUUAGGUUGUUCUGUAGACU`, “RBNS enrichment (R)” read 2.97.
`UAAAGUGAAAAAGGAGAGAGACCCUUGAACCACUGGGCAGCCACCUCCUUUGCCCUAGACCAGCUCCUCUCCAAUCCUGAGGGCCCCUCCCCCAACCCAACUCGACCCUC` — result for “RBNS enrichment (R)”: 0.571.

For quick reference, copied from above (set 4):
With `ATTTATCG` the E-score was 0.248.
`CTACTAAC` has an E-score of 0.0669.
For `ACATAATC`, the E-score was 0.255.
`AGCATTAG` gave an E-score of 0.052.
With `CAATCGTC` the E-score was -0.0444.
`GGTGTGGA` gave an E-score of -0.019.
